Measured values pooled from the literature.
Protocols differ between the studies behind these lines. Values joined by “and” are separate records of one study, mostly repeats; a detail may differ. ± gives the spread as reported.
Organism: Salmonella typhimurium

[N-]=[N+]=[N-].[Na+]
revertant colonies (Ames test; TA1535; 0.3 µg/well, without S9): 240 colonies/well and 224 colonies/well and 272 colonies/well

CC(C)N(N=O)C(C)C
revertant colonies per plate (mutagenicity, Ames plate incorporation; TA100; 150 µg/plate, without S9, methanol): 163 ± 27

O=[N+]([O-])c1ccc(N2CCN(CCC(O)c3ccc(F)cc3)CC2)c(C(F)(F)F)c1 (stereo not drawn)
induction factor (SOS response, SOS/umu test; TA1535/pSK1002, TGA medium; 0.000488 mg/mL, 4 h, without S9; reference: untreated): 0.9

Nc1c2ccccc2nc2ccccc12
revertant colonies per plate (preincubation Ames test; TA1537; 100 µg per plate): 1000

O=[N+]([O-])c1ccc2c(c1)Cc1ccccc1-2
revertant ratio (Ames test, confirmatory; TA98; 1.0 µg/plate; reference: solvent control): 6.9

COCCN(CCOC)N=O
revertant colonies per plate (mutagenicity, Ames plate incorporation; TA98; 5000 µg/plate, 3 d, without S9, methanol): 20 ± 6

COc1cccc(-c2n[nH]c(SCc3ccccn3)n2)c1OC
revertant colonies per plate (Ames test, plate incorporation; TA100; 0.50 mg/plate, without S9): 111

CNC(=O)c1c(N(C)N=O)ncn1C
revertant colonies per plate (mutagenicity, Ames plate incorporation; TA1537; 5000 µg/plate, without S9, methanol): 10.7 ± 2

OC(CCN1CC=C(c2ccc(F)cc2)CC1)c1ccc(F)c2ccccc12 (stereo not drawn)
survival (SOS/umu test; TA1535/pSK1002; 0.031 mg/mL, 4 h, with S9, full range): 74.5%

N#C[C@@]1(n2ccc(N)nc2=O)O[C@H](CO)[C@@H](O)[C@H]1O
viability (TA1537; 100 µM, without S9): 93%

Nc1ccc2cc3ccccc3cc2c1
revertant ratio (Ames test, confirmatory; TA98; 1.0 µg/plate, added: rat liver S9; reference: solvent control): 10.6

Nc1ccc2cc3ccccc3cc2c1
revertant fold increase (TA1535; 5 µg/plate, added: rat liver S9; reference: vehicle control): 25.4

Cc1cc(C(=O)NC(C)(C)COc2cccc3c2C(N)=NS(=O)(=O)N3)cc(C)n1
revertant ratio treated over solvent (Ames test; TA98; 5000 µg/plate, without S9; reference: solvent): 1.3

O=NN1CCN(C2CCCC2)CC1
revertant colonies per plate (mutagenicity, Ames plate incorporation; TA100; 2500 µg/plate, 3 d, without S9, methanol): 155 ± 31

Fc1ccc(C2=CCNCC2)cc1
induction factor (genotoxicity, SOS/umu test; TA1535/pSK1002; 0.016 mg/mL, 4 h, without S9, full range): 0.9

CC(=O)N1CCC(C(=O)N2CCN3C(=O)c4cc(-c5ccccc5)ccc4NC(=O)C3C2)CC1 (stereo not drawn)
revertants per plate (TA1535; 50 µg/plate, added: rat liver S9): 16.5

O=C(O)CCCOc1ccc(F)cc1-c1cc(-c2ccccc2C(F)(F)F)n(-c2ccccc2)n1
growth-inhibiting concentration (Ames test; TA98; concentration not given, without S9 metabolic activation): ≥ 1250 µg/plate

O=[N+]([O-])c1ccc(NC2CCNCC2)c(C(F)(F)F)c1
induction factor (genotoxicity, SOS/umu test; TA1535/pSK1002; 0.008 mg/mL, 4 h, with S9, full range): 0.7

N#Cc1ccnc(Oc2nn([C@H]3C[C@H](F)C3)c3ncnc(N)c23)c1
mutagenicity (mini Ames test; TA98 and TA100; concentration not given, with and without S9, negative): negative

O=[N+]([O-])c1ccc(N2CCC(NCCC(O)c3ccc(F)c4ccccc34)CC2)c(C(F)(F)F)c1 (stereo not drawn)
survival (SOS/umu test; TA1535/pSK1002, TGA medium; 3.05e-05 mg/mL, 4 h, added: 10% rat liver S9): 104%

CN(N=O)c1ccc(F)cc1
revertant colonies per plate (mutagenicity, Ames plate incorporation; TA100; 50 µg/plate, 3 d, without S9, methanol): 145 ± 28

Repeated from above:
CC(=O)N1CCC(C(=O)N2CCN3C(=O)c4cc(-c5ccccc5)ccc4NC(=O)C3C2)CC1 (stereo not drawn)
revertants per plate (TA1535; 50 µg/plate, added: rat liver S9): 16.5

O=NN1CCN(C2CCCC2)CC1
revertant colonies per plate (mutagenicity, Ames plate incorporation; TA100; 2500 µg/plate, 3 d, without S9, methanol): 155 ± 31

CC(C)N(N=O)C(C)C
revertant colonies per plate (mutagenicity, Ames plate incorporation; TA100; 150 µg/plate, without S9, methanol): 163 ± 27
